Measurements gathered from unrelated publications.
Protocols differ between the studies behind these lines.
CDK5 with p25: Cyclin-dependent kinase 5, with p25 (CDK5, Homo sapiens, UniProt Q00535)
CDK5 with p35: Cyclin-dependent kinase 5, with p35 (CDK5, Homo sapiens, UniProt Q00535)

CN1CCN(Cc2ccc(-c3ccc(CO[C@H]4CCC[C@@H]4NC(=O)c4cc(-c5cnn(C)c5)cnc4N)cc3)cc2)CC1 gave an inhibition of -3% (CDK5 with p25; enzyme activity, inhibitor; 0.1 µM).
For NC(=O)C[C@H]1CCc2sc3ncnc(O[C@H]4CC[C@H](N5CCOCC5)CC4)c3c21, the inhibition was 15% (CDK5 with p25; enzyme activity, inhibitor; 10 µM).
COc1ccc(O)cc1-c1c[nH]c2ncc(-c3cncc(C(=O)N(C)C)c3)cc12 has an inhibition of 4.48% (CDK5 with p35; binding, competition with immobilised ligand; 0.2 µM).
C=CC(=O)N1Cc2nc(-c3cc(-c4cc(Cl)cnc4Cl)c(F)cc3F)n(-c3ccncn3)c2C1 has an inhibition of -1.6% (Cyclin-dependent kinase 5, inactive (CDK5, Homo sapiens, UniProt Q00535); kinome panel; 1 µM).
The inhibition of C=CC(=O)Nc1cccc(-c2cnc3[nH]cc(C(=O)NC(C)(C)C)c3n2)c1 is reported as 15% (Cyclin-dependent kinase 5 (CDK5, Homo sapiens, UniProt Q00535); enzyme activity, inhibitor; 0.1 µM).
For Cc1cccc(O[C@H]2CCC[C@@H](C(C)CNCc3ccncc3)C2)c1 (relative stereo), the inhibition was 0% (CDK5 with p25; enzyme activity, inhibitor; 10 µM).
The inhibition of NC(=O)[C@@H](O)C[C@H]1CCc2sc3ncnc(O[C@H]4CC[C@H](N5CCOCC5)CC4)c3c21 is reported as 28% (CDK5 with p35; enzyme activity, inhibitor; 10 µM).
With CCn1cc(C(=O)O)c(=O)c2c(N)c(F)c(NC3CCCCC3)cc21 the inhibition was 20.8% (CDK5 with p25; kinase activity; 0.1 µM, with: ATP at Km).
CN1CC[C@@H](COc2cnc(C#N)cc2-c2ccn3nc(NC(=O)C4CC4)cc3c2)C1 gave an inhibition of 7% (CDK5 with p35; enzyme activity, inhibitor; 1 µM).
COc1ccc(C(=O)/C=C/c2ccccc2-c2c[nH]c3ccc(C#N)cc23)c(O)c1 gave an inhibition of 8% (CDK5 with p35; enzyme activity, inhibitor; 20 µM).

Repeated from above:
The inhibition of C=CC(=O)Nc1cccc(-c2cnc3[nH]cc(C(=O)NC(C)(C)C)c3n2)c1 is reported as 15% (Cyclin-dependent kinase 5 (CDK5, Homo sapiens, UniProt Q00535); enzyme activity, inhibitor; 0.1 µM).
